Assay results from different studies.
Numbered parts are unrelated; each lists some results of a single study.

Study 1
Target: Interferon regulatory factor 3, full length, phosphomimetic (IRF3, Homo sapiens, UniProt Q14653, residues 1-427, S386D/S396D/S398D/S402D/T404D/S405D)
Method: protein-binding microarray
Form: double-stranded DNA, one strand shown
Medium: in vitro
Tested at: 2540 nM top
Notes: 60-bp whole probe
With: salmon DNA 0.4 mg/ml
Relative to: random background probes
Direction: higher = stronger binding
Construct (chain): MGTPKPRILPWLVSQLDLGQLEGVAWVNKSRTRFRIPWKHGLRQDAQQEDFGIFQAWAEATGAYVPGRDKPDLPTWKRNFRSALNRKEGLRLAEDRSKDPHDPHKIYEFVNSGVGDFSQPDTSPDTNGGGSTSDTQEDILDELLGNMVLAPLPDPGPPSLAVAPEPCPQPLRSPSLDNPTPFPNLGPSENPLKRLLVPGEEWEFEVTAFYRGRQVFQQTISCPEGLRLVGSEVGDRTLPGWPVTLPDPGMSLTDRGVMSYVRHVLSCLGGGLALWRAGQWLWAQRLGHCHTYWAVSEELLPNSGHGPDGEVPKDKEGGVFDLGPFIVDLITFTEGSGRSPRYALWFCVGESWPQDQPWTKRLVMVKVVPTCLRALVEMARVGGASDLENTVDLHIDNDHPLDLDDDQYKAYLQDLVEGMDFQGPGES
| Oligonucleotide | fitted relative affinity |
| --- | --- |
| GCCTAGCACTTAGGTATCGGTTTCCGTTAGTGCTAGGTCTTGATTCGCTTGACGCTGCTG | 7.69 z-score |
| GCCTAGCACTCATTTTGGTTTTCTCTAACTGTGCTAGTCTTGATTCGCTTGACGCTGCTG | 2.31 z-score |
| GCCTAGCACTTAGGTTTCGGGCCTGGGTTAGTGCTAGTCTTGATTCGCTTGACGCTGCTG | 2.12 z-score |
| GCCTAGCACTTAGTACTGGGGTTTCGGTTAGTGCTAGTCTTGATTCGCTTGACGCTGCTG | 2.56 z-score |

Study 2
Target: Prothrombin, mature alpha-thrombin (F2, Homo sapiens, UniProt P00734)
Method: aptamer microarray, sandwich
Form: DNA with 2'F-ANA
Medium: in vitro
Tested at: 200 nM
Notes: whole 15-mer aptamer, many near background
With: Cy3 exosite-II aptamer, 400 nM
Direction: higher = stronger binding
| Oligonucleotide | mean fluorescence intensity [a.u.] |
| --- | --- |
| GGTTGGTGTGGTTGG (2'F-ANA at 1 6 7 11) | 156 |
| GGTTGGTGTGGTTGG (2'F-ANA at 1 5 6 7 8 9 10 11 13 15) | 56.1 |
| GGTTGGTGTGGTTGG (2'F-ANA at 2 4 6 9 11 14 15) | 75.3 |
| GGTTGGTGTGGTTGG (2'F-ANA at 1 2 4 5 6 7 8 12 15) | 118 |

Study 3
Target: Histone acetyltransferase KAT6A, winged helix 2, GST fusion (KAT6A, Homo sapiens, UniProt Q92794, residues 85-181)
Method: protein binding microarray
Form: double-stranded DNA, one strand shown
Medium: in vitro
Tested at: not given
Notes: 8-mer, flanks averaged, mean of 2 arrays, mostly near background
Relative to: not given
Direction: higher = stronger binding
Residues (chain): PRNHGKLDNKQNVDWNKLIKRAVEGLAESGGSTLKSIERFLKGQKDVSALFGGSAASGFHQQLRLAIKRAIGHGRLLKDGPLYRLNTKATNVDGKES
| Oligonucleotide | E-score |
| --- | --- |
| CGACGGCC | 0.0295 |
| AATGCGGG | 0.154 |
| AACACAGT | -0.119 |
| CGGGTGTC | 0.102 |
| AAAGAGTT | -0.0959 |

Single results of other studies
| Molecule | target | assay | system | conditions | how to read | measurement | result |
| --- | --- | --- | --- | --- | --- | --- | --- |
| PhoQ, residues 284 288 289 292 302 303 GANMMA | PhoP, residues 12 14 15 18 19 TPWLV (Escherichia coli, UniProt P23836) | Sort-seq, measured: YFP reporter | E. coli | PhoQ-PhoP variant library, with: 10 µM Mg2+ | relative to: high Mg2+ state, higher = stronger signaling | fold induction | 0.617 |

Repeated from above (study 1):
| Oligonucleotide | fitted relative affinity |
| --- | --- |
| GCCTAGCACTTAGGTATCGGTTTCCGTTAGTGCTAGGTCTTGATTCGCTTGACGCTGCTG | 7.69 z-score |
